Values quoted from earlier work, collected from citations in different studies.
Protocols differ between the studies behind these lines. Values after ≈ are worked out from the molar mass of the structure shown.
CDK2: Cyclin-dependent kinase 2 (CDK2, Homo sapiens, UniProt P24941)
PARP1: Poly [ADP-ribose] polymerase 1 (PARP1, Homo sapiens, UniProt P09874)
UniProt P09874, sequence (whole entry, looked up): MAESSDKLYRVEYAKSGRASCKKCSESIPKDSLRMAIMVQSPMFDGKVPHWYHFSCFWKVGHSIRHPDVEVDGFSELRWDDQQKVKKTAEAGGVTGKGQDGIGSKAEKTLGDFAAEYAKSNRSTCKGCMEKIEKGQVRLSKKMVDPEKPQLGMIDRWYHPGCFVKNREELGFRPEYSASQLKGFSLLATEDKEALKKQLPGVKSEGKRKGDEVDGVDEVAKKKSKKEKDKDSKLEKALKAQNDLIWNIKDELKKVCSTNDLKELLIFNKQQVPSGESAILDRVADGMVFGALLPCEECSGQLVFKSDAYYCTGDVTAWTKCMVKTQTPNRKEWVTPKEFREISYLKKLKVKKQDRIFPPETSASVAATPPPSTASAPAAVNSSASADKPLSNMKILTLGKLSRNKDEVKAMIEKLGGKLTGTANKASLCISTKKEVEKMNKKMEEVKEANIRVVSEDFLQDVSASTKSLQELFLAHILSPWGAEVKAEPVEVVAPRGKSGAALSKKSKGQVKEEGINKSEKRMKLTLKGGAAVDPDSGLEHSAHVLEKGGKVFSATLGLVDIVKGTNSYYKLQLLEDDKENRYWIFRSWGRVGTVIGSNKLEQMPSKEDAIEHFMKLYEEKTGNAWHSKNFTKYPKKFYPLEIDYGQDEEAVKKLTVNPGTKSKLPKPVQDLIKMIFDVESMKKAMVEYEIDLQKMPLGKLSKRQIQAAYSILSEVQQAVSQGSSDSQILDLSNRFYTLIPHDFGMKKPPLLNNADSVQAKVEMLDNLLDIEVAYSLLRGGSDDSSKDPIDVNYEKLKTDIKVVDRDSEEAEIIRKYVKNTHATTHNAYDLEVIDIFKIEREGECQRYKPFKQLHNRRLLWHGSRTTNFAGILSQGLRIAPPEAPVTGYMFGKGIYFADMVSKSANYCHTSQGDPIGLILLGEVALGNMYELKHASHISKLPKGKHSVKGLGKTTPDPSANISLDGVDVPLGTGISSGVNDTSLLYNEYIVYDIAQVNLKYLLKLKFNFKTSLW
PTGS2: Prostaglandin G/H synthase 2 (PTGS2, Homo sapiens, UniProt P35354)
UniProt P35354, sequence (whole entry, looked up): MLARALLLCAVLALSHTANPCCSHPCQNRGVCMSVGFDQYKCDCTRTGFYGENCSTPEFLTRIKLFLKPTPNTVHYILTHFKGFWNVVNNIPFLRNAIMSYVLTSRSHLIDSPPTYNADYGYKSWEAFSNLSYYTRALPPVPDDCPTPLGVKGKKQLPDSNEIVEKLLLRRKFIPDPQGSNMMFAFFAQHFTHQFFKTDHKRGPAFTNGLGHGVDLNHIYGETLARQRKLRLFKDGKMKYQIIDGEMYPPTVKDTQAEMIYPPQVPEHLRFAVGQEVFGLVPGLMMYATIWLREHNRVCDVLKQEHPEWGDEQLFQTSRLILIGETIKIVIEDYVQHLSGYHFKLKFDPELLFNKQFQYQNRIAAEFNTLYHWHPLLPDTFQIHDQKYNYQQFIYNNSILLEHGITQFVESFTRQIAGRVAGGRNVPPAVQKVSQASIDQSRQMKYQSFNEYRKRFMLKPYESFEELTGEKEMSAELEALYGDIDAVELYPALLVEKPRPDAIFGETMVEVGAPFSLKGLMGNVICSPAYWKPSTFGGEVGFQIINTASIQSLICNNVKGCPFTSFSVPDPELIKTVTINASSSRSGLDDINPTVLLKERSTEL
KDR: Vascular endothelial growth factor receptor 2 (KDR, Homo sapiens, UniProt P35968)
UniProt P35968, sequence (whole entry, looked up): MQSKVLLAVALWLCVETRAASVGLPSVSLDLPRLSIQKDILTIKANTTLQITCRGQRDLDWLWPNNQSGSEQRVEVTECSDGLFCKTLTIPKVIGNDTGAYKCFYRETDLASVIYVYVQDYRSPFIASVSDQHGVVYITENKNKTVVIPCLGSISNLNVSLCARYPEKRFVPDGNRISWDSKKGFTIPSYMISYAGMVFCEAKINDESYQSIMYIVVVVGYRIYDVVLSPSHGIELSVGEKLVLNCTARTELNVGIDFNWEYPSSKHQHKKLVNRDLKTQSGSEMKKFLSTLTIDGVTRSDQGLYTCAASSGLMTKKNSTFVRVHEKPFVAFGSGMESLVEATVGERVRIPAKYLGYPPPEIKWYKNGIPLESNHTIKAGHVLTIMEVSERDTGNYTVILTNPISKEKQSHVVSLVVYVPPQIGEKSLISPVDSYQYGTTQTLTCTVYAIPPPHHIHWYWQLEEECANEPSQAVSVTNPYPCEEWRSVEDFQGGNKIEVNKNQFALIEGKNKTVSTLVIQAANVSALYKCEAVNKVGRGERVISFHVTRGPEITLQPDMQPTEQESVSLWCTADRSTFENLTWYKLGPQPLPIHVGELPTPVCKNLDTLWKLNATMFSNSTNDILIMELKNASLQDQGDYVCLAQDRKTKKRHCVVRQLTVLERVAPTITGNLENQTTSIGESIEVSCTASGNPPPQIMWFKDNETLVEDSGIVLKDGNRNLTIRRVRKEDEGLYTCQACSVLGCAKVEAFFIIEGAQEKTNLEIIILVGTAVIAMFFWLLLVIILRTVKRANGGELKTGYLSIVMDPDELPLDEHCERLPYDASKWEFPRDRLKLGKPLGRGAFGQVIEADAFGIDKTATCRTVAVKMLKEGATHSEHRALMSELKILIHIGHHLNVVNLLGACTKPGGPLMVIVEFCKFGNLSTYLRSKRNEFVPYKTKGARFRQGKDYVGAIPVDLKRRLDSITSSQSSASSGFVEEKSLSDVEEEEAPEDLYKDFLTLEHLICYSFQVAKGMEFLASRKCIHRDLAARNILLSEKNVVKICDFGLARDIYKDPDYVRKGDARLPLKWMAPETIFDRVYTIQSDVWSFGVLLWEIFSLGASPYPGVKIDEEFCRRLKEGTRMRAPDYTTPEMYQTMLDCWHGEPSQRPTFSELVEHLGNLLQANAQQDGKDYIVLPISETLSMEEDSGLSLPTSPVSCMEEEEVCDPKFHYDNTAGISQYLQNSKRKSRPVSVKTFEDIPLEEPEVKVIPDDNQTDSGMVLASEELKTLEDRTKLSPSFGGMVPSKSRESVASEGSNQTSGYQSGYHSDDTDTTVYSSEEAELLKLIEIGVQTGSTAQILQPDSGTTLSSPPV
PSMB1/PSMB8/PSMB3: PSMB1/PSMB8/PSMB3 (Homo sapiens, UniProt P20618+P28062+P49720)
UniProt P49720, sequence (whole entry, looked up): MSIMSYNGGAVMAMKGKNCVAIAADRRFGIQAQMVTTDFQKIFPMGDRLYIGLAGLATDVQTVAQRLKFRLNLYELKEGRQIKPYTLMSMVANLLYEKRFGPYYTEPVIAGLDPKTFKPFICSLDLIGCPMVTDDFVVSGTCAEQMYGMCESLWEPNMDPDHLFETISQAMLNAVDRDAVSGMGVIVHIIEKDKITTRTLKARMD
UniProt P28062, sequence (whole entry, looked up): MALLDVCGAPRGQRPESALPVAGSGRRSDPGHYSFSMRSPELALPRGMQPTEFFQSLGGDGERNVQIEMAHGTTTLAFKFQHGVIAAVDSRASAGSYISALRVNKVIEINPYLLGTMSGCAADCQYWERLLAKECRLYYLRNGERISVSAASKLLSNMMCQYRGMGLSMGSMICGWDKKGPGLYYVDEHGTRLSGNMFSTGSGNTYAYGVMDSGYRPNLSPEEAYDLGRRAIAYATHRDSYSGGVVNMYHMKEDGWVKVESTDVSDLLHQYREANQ
UniProt P20618, sequence (whole entry, looked up): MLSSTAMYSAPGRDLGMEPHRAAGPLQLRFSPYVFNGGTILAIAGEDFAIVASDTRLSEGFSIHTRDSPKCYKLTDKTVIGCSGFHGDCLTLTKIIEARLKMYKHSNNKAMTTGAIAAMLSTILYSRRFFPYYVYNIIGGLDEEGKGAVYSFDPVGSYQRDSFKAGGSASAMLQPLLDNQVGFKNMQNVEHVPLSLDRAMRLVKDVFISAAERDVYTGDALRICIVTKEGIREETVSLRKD
UniProt P06213, sequence (whole entry, looked up): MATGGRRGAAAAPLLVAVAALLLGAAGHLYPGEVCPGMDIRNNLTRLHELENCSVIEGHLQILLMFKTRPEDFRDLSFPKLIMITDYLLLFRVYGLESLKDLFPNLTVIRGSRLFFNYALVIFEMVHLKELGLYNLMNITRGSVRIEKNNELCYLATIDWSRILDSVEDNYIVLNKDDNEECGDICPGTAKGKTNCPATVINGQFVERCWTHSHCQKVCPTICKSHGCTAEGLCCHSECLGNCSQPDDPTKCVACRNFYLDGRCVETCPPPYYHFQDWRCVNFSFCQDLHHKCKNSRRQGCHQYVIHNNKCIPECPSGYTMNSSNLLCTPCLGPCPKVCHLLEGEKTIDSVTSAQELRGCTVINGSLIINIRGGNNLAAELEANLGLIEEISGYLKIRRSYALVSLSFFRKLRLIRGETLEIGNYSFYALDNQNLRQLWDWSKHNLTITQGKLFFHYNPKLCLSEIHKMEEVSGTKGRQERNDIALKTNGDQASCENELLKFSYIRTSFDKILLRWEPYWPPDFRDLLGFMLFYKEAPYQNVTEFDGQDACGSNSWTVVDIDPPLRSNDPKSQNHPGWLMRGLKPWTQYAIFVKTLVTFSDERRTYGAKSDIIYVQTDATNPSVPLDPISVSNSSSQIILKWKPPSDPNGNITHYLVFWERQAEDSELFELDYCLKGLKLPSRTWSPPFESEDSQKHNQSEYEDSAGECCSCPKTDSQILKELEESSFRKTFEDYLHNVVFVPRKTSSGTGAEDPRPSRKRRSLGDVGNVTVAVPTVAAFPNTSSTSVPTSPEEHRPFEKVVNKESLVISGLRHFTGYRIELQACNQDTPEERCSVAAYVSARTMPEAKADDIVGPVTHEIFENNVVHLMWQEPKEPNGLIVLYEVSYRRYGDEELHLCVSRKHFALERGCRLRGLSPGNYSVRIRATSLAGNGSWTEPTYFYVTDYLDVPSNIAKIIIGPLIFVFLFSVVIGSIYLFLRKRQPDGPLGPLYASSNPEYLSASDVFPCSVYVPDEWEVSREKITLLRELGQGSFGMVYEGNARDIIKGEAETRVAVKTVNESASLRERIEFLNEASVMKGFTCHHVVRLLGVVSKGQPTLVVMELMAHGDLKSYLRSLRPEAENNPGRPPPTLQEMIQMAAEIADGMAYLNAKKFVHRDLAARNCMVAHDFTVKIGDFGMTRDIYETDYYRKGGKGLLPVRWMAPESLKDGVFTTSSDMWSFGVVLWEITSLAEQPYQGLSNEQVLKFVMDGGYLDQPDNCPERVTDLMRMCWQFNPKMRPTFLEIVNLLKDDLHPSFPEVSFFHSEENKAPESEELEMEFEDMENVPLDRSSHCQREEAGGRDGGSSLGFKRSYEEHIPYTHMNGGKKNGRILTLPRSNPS

SMILES	tested on	test	system	setting	how to read	measurement	result
CCc1cccc(CC)c1NC(=O)c1nn(C)c2c1CCc1cnc(Nc3ccc(C(=O)N4CCC[C@H]4CN4CCCC4)cc3OC)nc1-2	CDK2					IC50	1 nM
CN(C)Cc1ccc(-c2nc3cccc4c3n2CCNC4=O)cc1	PARP1	enzyme activity, inhibitor				IC50	29 nM
COc1cc(C=CC(=O)O)cc(OC)c1O	PTGS2	inhibitor				IC50	18300 nM
CC1=NN(c2ccc(C)c(C)c2)C(=O)/C1=N\Nc1cccc(-c2cccc(C(=O)O)c2)c1O	Solute carrier organic anion transporter family member 1B1 (SLCO1B1, Homo sapiens, UniProt Q9Y6L6)	inhibitor				IC50	2700 nM
CCc1ccccc1-c1ccc(C(=O)NC[C@@H](N)C(=O)O)o1	Glutamate receptor ionotropic, NMDA 1, with GluN2A (Grin1, Rattus norvegicus, UniProt P35439)			with: saturating glutamate		EC50	93 nM
CCN1CCN(Cc2ccc(C(=O)N[C@@H](CCCNC(=N)N)C(=O)NC(CC(=O)NC(Cc3ccsc3)C(N)=O)CC(C)C)cc2)CC1 (stereo partly shown)	CDK2					IC50	17400 nM
CC1(C)S[C@@H]2[C@H](NC(=O)[C@H](N)c3ccccc3)C(=O)N2[C@H]1C(=O)O	Pseudomonas aeruginosa		clinical isolate RKI-No_1/16			MIC	> 16 µg/mL
CNC(=O)[C@@]12C[C@@H]1[C@@H](n1cnc3c(NCc4cccc(Cl)c4)nc(C#Cc4ccc(F)c(F)c4)nc31)[C@H](O)[C@@H]2O	Alpha-2C adrenergic receptor (ADRA2C, Homo sapiens, UniProt P18825)	radioligand binding				Ki	2000 nM
Cc1cc(Nc2nccc(-n3ccnc3-c3ccccc3)n2)cc(C)n1	KDR	inhibitor				IC50	135 nM
O=C(O)CNC(=O)c1nc(Cl)c2ccccc2c1O	Hypoxia-inducible factor 1-alpha inhibitor (HIF1AN, Homo sapiens, UniProt Q9NWT6)	inhibitor				IC50	> 25000 nM
COCC(=O)N1CCC[C@H](C(=O)NCc2nc(-c3ccc(OC)cc3)cs2)C1	PSMB1/PSMB8/PSMB3	enzyme activity, inhibitor				IC50	> 30000 nM
Cc1nccn1CCC(C(N)=O)(c1ccccc1)c1ccccc1	muscarinic M2 receptor					IC50	4.13 nM
COc1cc2nccc(Oc3ccc(NC(=O)Nc4ccc(C)cc4)cc3)c2cc1OC	KDR	inhibitor				IC50	0.5 nM
N[C@@H]1C[C@@]1(F)c1ccccc1	tyramine oxidase (Arthrobacter sp.)	enzyme activity, inhibitor		pH 7.2, literature data, with: benzylamine 0.6 mM substrate		IC50	3600 nM
CN1C(=N)NC(=O)/C1=C/c1ccc(S(C)(=O)=O)cc1	PTGS2	inhibitor				IC50	310 nM
N[C@H]1C[C@@]1(F)c1ccc(F)cc1	tyramine oxidase (Arthrobacter sp.)	enzyme activity, inhibitor		pH 7.2, literature data, with: benzylamine 0.6 mM substrate		IC50	75000 nM
CCC(=O)O[C@]1(C(=O)SCF)[C@H](C)C[C@H]2[C@@H]3C[C@H](F)C4=CC(=O)C=C[C@]4(C)[C@@]3(F)[C@@H](O)C[C@@]21C	Glucocorticoid receptor (Nr3c1, Rattus norvegicus, UniProt P06536)		rat, spleen	intravenous, 90 nmol/kg, 0.5097 (unit not given)		receptor occupancy	88.8%
COC1CCN(C(=O)c2cc(Cc3n[nH]c(=O)c4ccccc34)ccc2F)CC1	PARP1	enzyme activity, inhibitor				IC50	5 nM
CCCCCCC/C=C/C(=O)CCc1ccc(O)c(OC)c1	PTGS2	inhibitor				IC50	17500 nM
Nc1scc2c1c(NCCO)nc1ncnc(N)c12	CDK2					IC50	500 nM
Nc1ncnc2c1ncn2C1CCCC1	human phosphatidylinositol 4-kinase					IC50	~10000 nM
NC(=O)N1CCC(CC(=O)N2CCC([C@H]3c4ncc(Br)cc4CCc4cc(Cl)cc(Br)c43)CC2)CC1	farnesyltransferase	enzyme activity		with: H-ras substrate		IC50	1.9 nM
O=C(Nc1nc2ccccc2[nH]1)c1ccccc1	caspase-3			12.5 µM, PubChem AID 488918		response	96%
COC(=O)c1nc(CCl)n(-c2ccc(F)cc2)n1	PTGS2	inhibitor				IC50	17.9 nM
Oc1ccc(/C=C/c2cc(O)cc(O)c2)cc1	α-amylase (porcine pancreas)	enzyme activity, inhibitor		with: starch		IC50	15900 nM

SMILES	tested on	test	system	setting	how to read	measurement	result
Fc1ncccc1-c1ccc2c(n1)[nH]c1ccncc12		binding, Scatchard analysis, item: tau aggregates	corticobasal degeneration brain tissue			Kd	9.4 nM
NS(=O)(=O)c1ccc(-n2nc(-c3ccc(C(F)(F)F)cc3O)nc2-c2ccccc2O)cc1	PTGS2	inhibitor				IC50	540 nM
C[C@H](NC(=O)[C@H](CC(=O)NCC(C)(C)C)NC(=O)c1ccc(C(=O)NO)cc1)C(=O)NCc1ccccc1	Protein deacetylase HDAC6 (HDAC6, Homo sapiens, UniProt Q9UBN7)	inhibitor				IC50	270 nM
CN1C/C=C/CCOc2cccc(c2)-c2ccnc(n2)Nc2ccc(OC(F)(F)F)c(c2)C1	CDK2					IC50	57 nM
Cc1ccc(-c2c(C#N)c(N)n3c(nc4ccccc43)c2C#N)cc1	Ferroptosis suppressor protein 1 (AIFM2, Homo sapiens, UniProt Q9BRQ8)	enzyme activity, inhibitor, resazurin				IC50	103 nM
COCC(=O)N1CCC[C@H](C(=O)NCc2nc(-c3ccc(C#N)cc3)cs2)C1	PSMB1/PSMB8/PSMB3	enzyme activity, inhibitor				IC50	> 30000 nM
COc1cc2ncnc(Nc3ccc(Oc4ccccc4)cc3)c2cc1OC	Tyrosine-protein kinase Lck (LCK, Homo sapiens, UniProt P06239)					IC50	88 nM
COc1ccnc2c1c(-c1ccnc(N)n1)c1ccnc(N)n12	CDK2					IC50	80 nM
Cc1c2cc(Br)ccc2nc(-c2ccc(Cl)cc2)[n+]1[O-]	PTGS2	inhibitor				IC50	7140 nM
O=C(O)C1=CCCN(CCON=C(c2ccccc2)c2ccccc2)C1	Sodium- and chloride-dependent GABA transporter 1 (Slc6a1, Rattus norvegicus, UniProt P23978)	inhibitor		historical reference value		IC50	200 nM
CNCc1cc(-c2ccccc2F)n(S(=O)(=O)c2cccnc2)c1			human	40 mg, single dose, fed, CYP3A victim drug		AUC(0-inf)	411 ng·h/mL
Cc1cc(NC(=O)c2cccc(NC(=O)/C=C/CN(C)C)c2)ccc1Nc1nccc(-c2cccnc2)n1	Insulin receptor (INSR, Homo sapiens, UniProt P06213)	enzyme activity, inhibitor		1 µM	reference: vehicle	remaining activity	14%
CCCCCCCCCCCCOC(=O)c1cc(O)c(O)c(O)c1	PTGS2	inhibitor				IC50	18600 nM
Nc1scc2c1c(Nc1ccc(S(N)(=O)=O)cc1)nc1nc(NCCO)nc(N)c12	CDK2					IC50	8100 nM
COc1ccc(CNc2c(CO)cnc3c(C4CC4)cc(C#N)cc23)cc1Cl	cGMP-dependent 3',5'-cyclic phosphodiesterase (PDE2A, Homo sapiens, UniProt O00408)					IC50	> 10000 nM
C[C@H]1COCCN1c1nc(-c2cnc(N)cc2C(F)F)nc(N2CCOCC2)n1	T98G					GI50	350 nM
Cc1c(C#N)c(Nc2ccc(S(N)(=O)=O)cc2)nc2ncnc(N)c12	CDK2					IC50	10000 nM
CNC(C)C1CCC(N)C(OC2C(N)CC(N)C(OC3OCC(C)(O)C(NC)C3O)C2O)O1 (stereo not shown)	Pseudomonas aeruginosa		clinical isolate RKI-No_1/16			MIC	2 µg/mL (≈ 4.19 µM)
CCOc1nc2cccc(C(=O)O)c2n1Cc1ccc(-c2ccccc2-c2nnn[nH]2)cc1	angiotensin II receptor					IC50	0.26 nM
COC(=O)c1cc(O)c(O)c(O)c1	PTGS2	inhibitor				IC50	43100 nM
CO[C@H]1/C=C/O[C@@]2(C)Oc3c(C)c(O)c4c(O)c(c(/C=N/N5CCN(C)CC5)c(O)c4c3C2=O)NC(=O)/C(C)=C\C=C\[C@H](C)[C@H](O)[C@@H](C)[C@@H](O)[C@@H](C)[C@H](OC(C)=O)[C@@H]1C	Organic anion transporter 3 (SLC22A8, Homo sapiens, UniProt Q8TCC7)	inhibitor				IC50	30000 to 33000 nM
NC(=O)c1ncn([C@@H]2O[C@H](CO)[C@@H](O)[C@H]2O)n1	uncharacterized protein (Trichomonas vaginalis, UniProt A2EYV3)	inhibitor				IC50	> 50000 nM
COc1ccc2cc1CN(C)C/C=C/CCOc1cccc(c1)-c1ccnc(n1)N2	CDK2					IC50	77 nM
Nc1cc(C(F)(F)F)c(-c2nc(N3CCOCC3)nc(N3CCOCC3)n2)cn1	Serine/threonine-protein kinase 24 (STK24, Homo sapiens, UniProt Q9Y6E0)	enzyme activity		10 µM	reference: untreated	remaining activity	92%

For quick reference, copied from above:
SMILES	tested on	test	system	setting	how to read	measurement	result
COc1cc2ncnc(Nc3ccc(Oc4ccccc4)cc3)c2cc1OC	Tyrosine-protein kinase Lck (LCK, Homo sapiens, UniProt P06239)					IC50	88 nM
NC(=O)c1ncn([C@@H]2O[C@H](CO)[C@@H](O)[C@H]2O)n1	uncharacterized protein (Trichomonas vaginalis, UniProt A2EYV3)	inhibitor				IC50	> 50000 nM
COC(=O)c1cc(O)c(O)c(O)c1	PTGS2	inhibitor				IC50	43100 nM
CCCCCCC/C=C/C(=O)CCc1ccc(O)c(OC)c1	PTGS2	inhibitor				IC50	17500 nM
COCC(=O)N1CCC[C@H](C(=O)NCc2nc(-c3ccc(OC)cc3)cs2)C1	PSMB1/PSMB8/PSMB3	enzyme activity, inhibitor				IC50	> 30000 nM
CCCCCCCCCCCCOC(=O)c1cc(O)c(O)c(O)c1	PTGS2	inhibitor				IC50	18600 nM
Nc1scc2c1c(NCCO)nc1ncnc(N)c12	CDK2					IC50	500 nM
Oc1ccc(/C=C/c2cc(O)cc(O)c2)cc1	α-amylase (porcine pancreas)	enzyme activity, inhibitor		with: starch		IC50	15900 nM
